Published values gathered from unrelated publications.
Each numbered part is a random draw from the data of one study; scales do not carry over between parts.

Set 1
Target: Sal-like protein 4, full length isoform B (SALL4, Homo sapiens, UniProt Q9UJQ4-2, residues 1-616)
Technique: universal PBM
Form: double-stranded DNA, one strand shown
Sample: in vitro
Tested at: not given
Setting: 8-mer, flanks averaged, mean of replicates
Reading: higher = stronger binding
Endpoint: E-score
GGTGCCAC: -0.299
AGAAATAT: 0.419
GGCTCAGA: -0.166
ACATTTGA: 0.241
AATGCCCC: -0.242
ATCCGCGA: -0.114

Set 2
Target: Interferon regulatory factor 3, full length, phosphomimetic (IRF3, Homo sapiens, UniProt Q14653, residues 1-427, S386D/S396D/S398D/S402D/T404D/S405D)
Technique: protein-binding microarray
Form: double-stranded DNA, one strand shown
Sample: in vitro
Tested at: 2540 nM top
Setting: 60-bp whole probe
Together with: salmon DNA 0.4 mg/ml
Baseline: random background probes
Reading: higher = stronger binding
Endpoint: fitted relative affinity
Construct (chain): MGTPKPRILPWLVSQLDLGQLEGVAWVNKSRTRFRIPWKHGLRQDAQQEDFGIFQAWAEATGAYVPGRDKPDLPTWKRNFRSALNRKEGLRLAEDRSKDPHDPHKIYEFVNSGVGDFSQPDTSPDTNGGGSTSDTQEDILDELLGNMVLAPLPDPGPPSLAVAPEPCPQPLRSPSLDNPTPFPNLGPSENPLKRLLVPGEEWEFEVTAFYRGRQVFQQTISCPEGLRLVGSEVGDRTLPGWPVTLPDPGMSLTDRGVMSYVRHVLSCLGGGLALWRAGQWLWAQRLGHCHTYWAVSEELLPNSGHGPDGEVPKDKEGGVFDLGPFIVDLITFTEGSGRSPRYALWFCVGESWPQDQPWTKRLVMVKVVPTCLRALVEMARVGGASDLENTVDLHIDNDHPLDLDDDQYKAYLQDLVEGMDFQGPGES
GCCTAGCACTTAGGACTGGGGTTTCGGCTAGTGCTAGTCTTGATTCGCTTGACGCTGCTG: -0.276 z-score
GCCTAGCACTTAGATATCAGGCTCGATTAGTGCTAGGTCTTGATTCGCTTGACGCTGCTG: 0.0278 z-score
GCCTAGCACTTAGAATCCAGTTTCGATTAGTGCTAGGTCTTGATTCGCTTGACGCTGCTG: 4.13 z-score
GCCTAGCACGACGGTATCGACTTCCGGGACGTGCTAGTCTTGATTCGCTTGACGCTGCTG: 1.03 z-score

Set 3
Target: Fragile X messenger ribonucleoprotein 1, C-terminal low-complexity region (Fmr1, Mus musculus, UniProt P35922)
Technique: RNA Bind-n-Seq
Form: RNA
Sample: in vitro
Tested at: 200 nM
Setting: whole 134-nt RNA, ends assumed
Together with: 150 mM LiCl
Baseline: input library
Reading: higher = stronger binding
Endpoint: log2 enrichment
Library: 7-deaza-guanosine replaces G
GGGAGUUCUACAGUCCGACGAUCCACAGACAACACGCACCCACACAGACACAGAGGGAAGGGGUUGGGAUGGGGACAGGGUGCACAGCAGGGCGGGGUGGGACCCCAGCCCCUUGGAAUUCUCGGGUGUCAAGG: 1.59
GGGAGUUCUACAGUCCGACGAUCUCCUGUGCUACACAUCGUAUGUACCGAAUCGGGGAAAGGGGAAAAAAAGGGGAAAGGGGAAAGUAUUAUGUUACGCCGUUCGGAUCUGCAUGGAAUUCUCGGGUGUCAAGG: 0.427
GGGAGUUCUACAGUCCGACGAUCUAACUUUAGAGGAGGAUCUGAUGGAUAUGGCAGUGGAGGUGGAUUUGGGGAUGGCUAUAAUGGGUAUGGAGGAGGACCUGGAGGUGGCAAUGGAAUUCUCGGGUGUCAAGG: 0.535

Other studies, line by line
PhoQ, residues 284 288 289 292 302 303 SSYNSA
fold induction (PhoP, residues 12 14 15 18 19 NHFIF (Escherichia coli, UniProt P23836); Sort-seq, item: YFP reporter; E. coli; PhoQ-PhoP variant library, together with: 10 µM Mg2+; baseline: high Mg2+ state, higher = stronger signaling): 13.3

A few entries again (set 1):
GGCTCAGA: -0.166
ACATTTGA: 0.241
